Published values from different studies.
Protocols differ between the studies behind these lines. Values after ≈ are worked out from the molar mass of the structure shown.
UniProt Q9BYP7, sequence (whole entry, looked up): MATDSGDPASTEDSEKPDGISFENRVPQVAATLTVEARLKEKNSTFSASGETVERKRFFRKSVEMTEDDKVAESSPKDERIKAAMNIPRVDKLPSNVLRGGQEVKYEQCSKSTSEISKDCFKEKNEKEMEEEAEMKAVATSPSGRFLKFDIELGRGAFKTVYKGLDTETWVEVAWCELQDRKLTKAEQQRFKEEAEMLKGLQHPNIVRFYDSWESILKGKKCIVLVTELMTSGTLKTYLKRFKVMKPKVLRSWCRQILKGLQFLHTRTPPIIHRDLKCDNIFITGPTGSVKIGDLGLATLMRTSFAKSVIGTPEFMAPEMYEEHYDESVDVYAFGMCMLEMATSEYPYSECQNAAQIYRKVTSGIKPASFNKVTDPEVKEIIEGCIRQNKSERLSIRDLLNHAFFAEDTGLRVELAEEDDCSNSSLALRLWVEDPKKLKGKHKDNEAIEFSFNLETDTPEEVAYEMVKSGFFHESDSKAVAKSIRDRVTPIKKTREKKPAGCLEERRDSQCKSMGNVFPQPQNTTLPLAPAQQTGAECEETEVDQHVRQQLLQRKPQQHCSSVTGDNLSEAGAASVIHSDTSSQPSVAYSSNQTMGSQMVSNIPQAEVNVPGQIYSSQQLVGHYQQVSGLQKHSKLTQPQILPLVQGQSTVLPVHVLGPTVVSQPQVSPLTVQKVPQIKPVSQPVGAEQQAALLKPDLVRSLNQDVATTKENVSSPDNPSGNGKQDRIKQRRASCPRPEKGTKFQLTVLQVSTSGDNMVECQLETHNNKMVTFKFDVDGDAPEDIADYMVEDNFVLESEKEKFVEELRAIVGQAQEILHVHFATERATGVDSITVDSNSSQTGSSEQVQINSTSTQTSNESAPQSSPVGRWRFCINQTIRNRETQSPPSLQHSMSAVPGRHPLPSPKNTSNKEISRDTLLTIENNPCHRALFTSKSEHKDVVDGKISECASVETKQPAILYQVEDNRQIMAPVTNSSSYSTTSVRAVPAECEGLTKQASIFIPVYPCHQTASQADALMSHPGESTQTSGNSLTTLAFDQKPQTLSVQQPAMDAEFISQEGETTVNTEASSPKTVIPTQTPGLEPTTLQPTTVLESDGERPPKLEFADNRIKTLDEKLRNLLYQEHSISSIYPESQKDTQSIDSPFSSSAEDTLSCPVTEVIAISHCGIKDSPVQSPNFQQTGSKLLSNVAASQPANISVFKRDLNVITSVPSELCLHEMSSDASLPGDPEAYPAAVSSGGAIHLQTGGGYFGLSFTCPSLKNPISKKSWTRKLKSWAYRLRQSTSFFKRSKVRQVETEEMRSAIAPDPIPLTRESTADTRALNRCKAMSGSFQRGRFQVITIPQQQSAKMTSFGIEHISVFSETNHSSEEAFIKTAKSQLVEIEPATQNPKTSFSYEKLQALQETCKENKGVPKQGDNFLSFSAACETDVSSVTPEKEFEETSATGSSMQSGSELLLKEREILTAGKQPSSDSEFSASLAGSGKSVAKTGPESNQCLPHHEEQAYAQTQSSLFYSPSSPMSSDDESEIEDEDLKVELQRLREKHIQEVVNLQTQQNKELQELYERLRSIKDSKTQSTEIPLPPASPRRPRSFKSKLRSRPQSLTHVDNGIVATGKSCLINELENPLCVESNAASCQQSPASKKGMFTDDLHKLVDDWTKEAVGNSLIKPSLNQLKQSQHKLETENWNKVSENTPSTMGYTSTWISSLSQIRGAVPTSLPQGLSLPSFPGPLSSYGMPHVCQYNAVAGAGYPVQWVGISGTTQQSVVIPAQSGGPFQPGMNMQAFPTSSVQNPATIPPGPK
UniProt P10721, sequence (whole entry, unmodified, looked up): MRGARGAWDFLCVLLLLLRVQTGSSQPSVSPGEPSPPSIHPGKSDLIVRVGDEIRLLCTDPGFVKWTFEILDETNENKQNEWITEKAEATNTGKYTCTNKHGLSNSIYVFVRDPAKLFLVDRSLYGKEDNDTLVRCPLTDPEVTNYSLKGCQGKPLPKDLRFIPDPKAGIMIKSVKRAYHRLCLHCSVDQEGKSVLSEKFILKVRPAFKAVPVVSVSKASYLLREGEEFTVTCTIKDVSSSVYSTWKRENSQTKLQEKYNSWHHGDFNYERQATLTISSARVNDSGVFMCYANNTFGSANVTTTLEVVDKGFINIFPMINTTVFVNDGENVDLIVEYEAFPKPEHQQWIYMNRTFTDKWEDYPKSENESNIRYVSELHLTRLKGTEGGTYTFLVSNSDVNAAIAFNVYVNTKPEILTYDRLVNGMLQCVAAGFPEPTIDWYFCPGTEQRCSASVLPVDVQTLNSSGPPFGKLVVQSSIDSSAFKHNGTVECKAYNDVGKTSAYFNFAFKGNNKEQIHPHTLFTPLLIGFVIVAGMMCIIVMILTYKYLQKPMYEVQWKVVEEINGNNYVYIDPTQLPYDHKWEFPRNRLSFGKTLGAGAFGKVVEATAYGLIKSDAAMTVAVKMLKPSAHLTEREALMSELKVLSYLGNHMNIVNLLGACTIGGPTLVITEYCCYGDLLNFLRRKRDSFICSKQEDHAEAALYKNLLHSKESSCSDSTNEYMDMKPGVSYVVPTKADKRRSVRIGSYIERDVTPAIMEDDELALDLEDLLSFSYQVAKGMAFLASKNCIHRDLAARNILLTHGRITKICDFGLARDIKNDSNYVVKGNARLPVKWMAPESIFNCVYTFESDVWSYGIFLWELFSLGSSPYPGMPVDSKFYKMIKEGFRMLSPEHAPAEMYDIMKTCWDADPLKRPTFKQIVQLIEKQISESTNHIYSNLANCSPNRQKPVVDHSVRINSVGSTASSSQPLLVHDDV
UniProt P28335, sequence (whole entry, looked up): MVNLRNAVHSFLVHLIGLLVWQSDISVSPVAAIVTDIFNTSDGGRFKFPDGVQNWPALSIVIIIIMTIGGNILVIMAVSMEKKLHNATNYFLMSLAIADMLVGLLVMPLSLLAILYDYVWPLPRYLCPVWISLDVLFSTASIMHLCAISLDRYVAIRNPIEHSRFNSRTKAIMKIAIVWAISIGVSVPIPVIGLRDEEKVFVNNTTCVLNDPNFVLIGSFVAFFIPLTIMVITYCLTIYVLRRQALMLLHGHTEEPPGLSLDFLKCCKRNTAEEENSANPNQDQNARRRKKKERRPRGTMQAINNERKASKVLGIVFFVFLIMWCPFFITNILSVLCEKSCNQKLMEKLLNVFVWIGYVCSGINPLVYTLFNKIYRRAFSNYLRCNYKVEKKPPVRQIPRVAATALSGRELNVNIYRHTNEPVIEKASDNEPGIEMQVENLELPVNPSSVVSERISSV
UniProt O95747, sequence (whole entry, looked up): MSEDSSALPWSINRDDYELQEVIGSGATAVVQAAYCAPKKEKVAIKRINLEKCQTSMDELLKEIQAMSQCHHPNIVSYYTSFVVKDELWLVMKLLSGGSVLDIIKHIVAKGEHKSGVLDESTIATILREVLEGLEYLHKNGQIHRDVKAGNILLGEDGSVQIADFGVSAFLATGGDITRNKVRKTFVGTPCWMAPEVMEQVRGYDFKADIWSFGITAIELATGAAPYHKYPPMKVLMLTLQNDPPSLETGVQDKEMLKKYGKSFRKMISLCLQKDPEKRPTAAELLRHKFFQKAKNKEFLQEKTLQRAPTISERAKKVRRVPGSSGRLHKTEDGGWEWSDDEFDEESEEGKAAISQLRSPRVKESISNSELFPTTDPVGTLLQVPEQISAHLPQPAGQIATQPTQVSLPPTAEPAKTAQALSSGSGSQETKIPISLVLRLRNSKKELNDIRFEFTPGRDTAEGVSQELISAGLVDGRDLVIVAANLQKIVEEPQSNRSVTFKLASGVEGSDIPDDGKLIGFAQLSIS
UniProt O75582, sequence (whole entry, looked up): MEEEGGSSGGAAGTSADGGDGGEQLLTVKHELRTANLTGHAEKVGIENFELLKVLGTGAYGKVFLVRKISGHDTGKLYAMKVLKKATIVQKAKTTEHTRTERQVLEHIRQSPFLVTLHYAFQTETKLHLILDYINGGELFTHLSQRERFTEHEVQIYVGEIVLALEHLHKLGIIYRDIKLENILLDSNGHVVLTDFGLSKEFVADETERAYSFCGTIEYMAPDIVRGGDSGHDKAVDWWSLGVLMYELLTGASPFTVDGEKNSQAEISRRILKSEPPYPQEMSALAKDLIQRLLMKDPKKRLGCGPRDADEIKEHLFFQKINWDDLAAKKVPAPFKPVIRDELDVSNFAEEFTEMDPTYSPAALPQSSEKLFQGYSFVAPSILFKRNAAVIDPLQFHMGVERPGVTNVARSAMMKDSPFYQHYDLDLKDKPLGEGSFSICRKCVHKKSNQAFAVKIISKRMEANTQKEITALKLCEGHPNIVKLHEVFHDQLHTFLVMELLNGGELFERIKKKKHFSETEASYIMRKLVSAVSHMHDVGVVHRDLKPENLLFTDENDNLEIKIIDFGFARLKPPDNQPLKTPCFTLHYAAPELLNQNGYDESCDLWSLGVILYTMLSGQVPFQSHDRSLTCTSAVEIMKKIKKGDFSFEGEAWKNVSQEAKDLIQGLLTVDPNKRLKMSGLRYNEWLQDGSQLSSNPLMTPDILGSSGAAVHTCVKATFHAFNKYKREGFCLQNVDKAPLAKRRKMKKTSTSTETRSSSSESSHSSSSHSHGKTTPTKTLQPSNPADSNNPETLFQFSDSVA

With `COC(=O)c1cc(-c2cccc(NC(=O)Nc3ccccc3C)c2)on1` the MIC was over 64 µg/mL (Mycolicibacterium fortuitum; microbial growth, broth dilution; ATCC6841; 48 h).
`C#Cc1ccc(C=NNC(=O)c2ccc(COC(C)C)cc2)c(O)c1` has an MIC80 of 0.015 µg/mL (≈ 0.0446 µM) (Cryptococcus neoformans; microbial growth, broth dilution; pH 7.4).
For `O=c1[nH]c2scc(-c3ccc(Cl)cc3)c2c(=O)n1O`, the inhibition was -1.7% (Human betaherpesvirus 5; viral replication, inhibitor; 10 µM, 7 days).
For `COC(=O)c1cc(-c2ccc(OC)c(NC(=O)Nc3ccc(Cl)c(Cl)c3)c2)on1`, the MIC was over 64 µg/mL (Pseudomonas aeruginosa; microbial growth, broth dilution; ATCC27853).
With `CC(C)C[C@H](NC(=O)[C@H](Cc1ccccc1)NC(=O)[C@H](Cc1ccccc1)NC(=O)Cc1ccc(-c2ccccc2)cc1)C(=O)N[C@@H](CCCCN)C(=O)N[C@@H](CCCNC(=N)N)C(=O)N[C@H](C(=O)N[C@@H](Cc1c[nH]c2ccccc12)C(=O)N[C@@H](CCCCN)C(=O)N[C@@H](CCCNC(=N)N)C(=O)O)C(C)C` the compound remaining was 33.9% (metabolic stability; dog, liver microsomes; 1 h).
With `O=C(NNc1cc(F)ccc1F)c1nnc(CC23CC4CC(CC(C4)C2)C3)o1` the inhibition was 100% (Rhizoctonia solani; microbial growth; 50 µg/mL).
With `COC(=O)c1cc(-c2cccc(NC(=S)Nc3ccc(F)cc3)c2)on1` the MIC was over 64 µg/mL (Mycobacteroides chelonae; microbial growth, broth dilution; ATCC35752; 48 h).
`CC(=O)N1CCN(c2ccc(OCC3COC(Cn4ccnc4)(c4ccc(Cl)cc4Cl)O3)cc2)CC1` (stereo not drawn) has an MFC of 32 µM (Candida albicans; microbial killing, broth dilution; CGMCC2; 48 h).
With `COC1=CC2=[N+](C)CCc3c[nH]c(c32)C1=O` the IC50 was 599 nM (Plasmodium falciparum; parasite growth, SYBR Green; 3D7; blood stage).
The MFC of `C#Cc1ccc(O)c(C=NNC(=O)c2ccc(Br)cc2)c1` is reported as 1 µg/mL (Cryptococcus neoformans; microbial killing).
`COC(=O)c1cc(-c2cccc(NC(=O)Nc3cccc(F)c3)c2)on1` gave an MIC of over 64 µg/mL (Mycolicibacterium fortuitum; microbial growth, broth dilution; ATCC6841; 48 h).
For `C#Cc1ccc(C=NNC(=O)c2ccc(Br)cc2)c(O)c1`, the MIC80 was 4 µg/mL (≈ 11.7 µM) (Candida albicans; microbial growth; pH 7.4).
The MIC of `COC(=O)c1cc(-c2cccc(NC(=O)Nc3cccc(Cl)c3)c2)on1` is reported as over 64 µg/mL (Klebsiella pneumoniae; microbial growth, broth dilution; BAA1705).
`C#Cc1cc(O)c(C=NNC(=O)c2ccc(Br)c(Br)c2)cc1C#C` has an MIC80 of 0.5 µg/mL (≈ 1.12 µM) (Candida albicans; microbial growth; pH 7.4).
For `CCCCNC[C@H](O)c1cc(Cl)cc2c1-c1ccc(Cl)cc1C2`, the IC50 was 18.8 nM (Plasmodium falciparum; parasite growth, SYBR Green; W2; 48 h, drug-resistant strain, blood stage).
`OC(Cn1cncn1)(Cn1cncn1)c1ccc(F)cc1F` gave an MFC of over 64 µM (Candida albicans; microbial killing, broth dilution; SP3876; 48 h).
With `O=C(NNc1cccc(Cl)c1)c1nnc(CC23CC4CC(CC(C4)C2)C3)o1` the EC50 was over 50 µg/mL (Rhizoctonia solani; microbial growth).
`COc1ncccc1-c1cnn2ccc(N3CCN(C(=O)OC(C)C)CC3)nc12` gave a remaining binding of 100% (Serine/threonine-protein kinase OSR1 (OXSR1, Homo sapiens, UniProt O95747); binding, competition with immobilised ligand; 1 µM).
With `C#Cc1n[nH]c2c(-c3cn(C(C)c4ccccn4)c(=O)[nH]c3=O)cc(F)cc12` (stereo not drawn) the inhibition was 7.6% (Ribosomal protein S6 kinase alpha-5 (RPS6KA5, Homo sapiens, UniProt O75582); enzyme activity, inhibitor; 1 µM).
For `COC(=O)c1cc(-c2cccc(NC(=S)Nc3ccc(F)c(Cl)c3)c2)on1`, the MIC was 32 µg/mL (≈ 78.8 µM) (Mycobacteroides chelonae; microbial growth, broth dilution; ATCC35752; 48 h).
`Cc1cc(Nc2ccc(C(F)(F)F)cc2)n2ncnc2n1` gave an EC50 of 1200 nM (Plasmodium falciparum; parasite growth, SYBR Green; 3D7; 72 h).
`O=C(NNc1ccc(Cl)c(Cl)c1)c1nnc(C23CC4CC(CC(C4)C2)C3)o1` has an inhibition of 75.4% (Rhizoctonia solani; microbial growth; 50 µg/mL).
The MIC of `COC(=O)c1cc(-c2cccc(NC(=O)Nc3ccc(C)cc3)c2)on1` is reported as over 64 µg/mL (Mycolicibacterium fortuitum; microbial growth, broth dilution; ATCC6841; 48 h).
For `C#Cc1ccc(O)c(C=NNC(=O)c2cc(Br)cc(Br)c2O)c1`, the MIC80 was 0.03 µg/mL (≈ 0.0685 µM) (Cryptococcus neoformans; microbial growth, broth dilution; pH 7.4).
`O=C(NNc1ccccc1)c1nnc(CC23CC4CC(CC(C4)C2)C3)o1` has an EC50 of over 50 µg/mL (Rhizoctonia solani; microbial growth).
For `Cc1cc(Nc2ccc(Cl)c(Cl)c2)n2nc(C)nc2n1`, the EC50 was over 12500 nM (Plasmodium falciparum; parasite growth, SYBR Green; 3D7; 72 h).
`COc1cc(CCNC(C)c2ccccc2O)c(OC)cc1C#N` (stereo not drawn) has an EC50 of 160 nM (5-hydroxytryptamine receptor 2C (HTR2C, Homo sapiens, UniProt P28335); G protein activation, agonist, BRET).
For `CC(CCCN(CCCl)CCCl)Nc1ccnc2cc(Cl)ccc12` (stereo not drawn), the inhibition was 99.6% (Dengue virus; viral replication, inhibitor; BHK-21, DENV2; 50 µM, 24 h, replicon).
With `[2H]c1c([2H])c([C@]2([2H])CCCN2C(=O)C(C)(C)Oc2ccc3cn[nH]c3c2)c([2H])c([2H])c1C([2H])([2H])[2H]` the remaining binding was 86% (Serine/threonine-protein kinase WNK3 (WNK3, Homo sapiens, UniProt Q9BYP7); binding, competition with immobilised ligand; 1 µM).
For `CN(C)S(=O)(=O)c1ccc(Sc2ccccc2)c(C(=O)N2CCCC(C(N)=O)C2)c1` (stereo not drawn), the EC50 was 66.7 nM (Plasmodium falciparum; parasite growth, SYBR Green; 3D7; 72 h).
The AUC of `CC[C@H](C)[C@H](NC(=O)[C@H](Cc1ccccc1)NC(=O)[C@H](CCC(=O)O)NC(=O)[C@H](CCCNC(=N)N)NC(=O)[C@H](C)NC(=O)[C@H](C)NC(=O)[C@H](CCC(N)=O)NC(=O)[C@H](CCC(=O)O)NC(=O)[C@H](CCC(=O)O)NC(=O)[C@H](CC(C)C)NC(=O)[C@H](Cc1ccc(O)cc1)NC(=O)[C@H](CO)NC(=O)[C@H](CO)NC(=O)[C@@H](NC(=O)[C@H](CC(=O)O)NC(=O)[C@H](CO)NC(=O)[C@@H](NC(=O)[C@H](Cc1ccccc1)NC(=O)[C@@H](NC(=O)CNC(=O)[C@H](CCC(=O)O)NC(=O)[C@H](C)NC(=O)CCc1c[nH]cn1)[C@@H](C)O)[C@@H](C)O)C(C)C)C(=O)N[C@@H](C)C(=O)N[C@@H](Cc1c[nH]c2ccccc12)C(=O)N[C@@H](CC(C)C)C(=O)N[C@H](C(=O)N[C@@H](CCCNC(=N)N)C(=O)NCC(=O)N[C@@H](CCCNC(=N)N)C(=O)N[C@@H](CCCCNC(=O)COCCOCCNC(=O)COCCOCCNC(=O)CC[C@H](NC(=O)CCCCCCCCCCCCCCCCC(=O)O)C(=O)O)C(=O)NCC(=O)NCC(=O)N[C@@H](CO)C(=O)N[C@@H](CCCCNc1c(NCCCCCN(O)C(=O)CCC(=O)NCCCCCN(O)C(=O)CCC(=O)NCCCCCN(O)C(C)=O)c(=O)c1=O)C(=O)O)C(C)C` is reported as 2.56 µM·h (rat, plasma; intravenous, 20 nmol/kg).
The inhibition of `COc1cnc(OC)n2nc(NS(=O)(=O)c3c(OCC(F)F)cccc3C(F)(F)F)nc12` is reported as 0.43% (HaCaT; cell growth or viability, CCK-8; 1.56 µM, 72 h).
`O=C(NNc1cc(F)ccc1F)c1nnc(C23CC4CC(CC(C4)C2)C3)o1` has an inhibition of 100% (Rhizoctonia solani; microbial growth; 50 µg/mL).
`Cc1nc(Nc2ccc(C)c(Cl)c2)c2c(C)noc2n1` gave an EC50 of 1660 nM (Plasmodium falciparum; parasite growth, SYBR Green; 3D7; 72 h).
`COC(=O)c1cc(-c2cccc(NC(=O)Nc3cccc(Br)c3)c2)on1` has an MIC of over 64 µg/mL (Klebsiella pneumoniae; microbial growth, broth dilution; BAA1705).
`Cn1cc(C2=C(c3cn(C4CCN(Cc5ccccn5)CC4)c4ccccc34)C(=O)NC2=O)c2ccccc21` gave an IC50 of 17600 nM (Betacoronavirus 1; viral replication; MRC5, OC43).
`Cc1nn(C)cc1-c1nc2c(N3CCN(Cc4ccc(Cl)cc4)CC3)c(Cl)cnc2[nH]1` has a remaining binding of 84% (Epidermal growth factor receptor (EGFR, Homo sapiens, UniProt P00533, L861Q); binding, competition with immobilised ligand; 1 µM).
`C#Cc1cccc(C=NNC(=O)c2ccc(Br)c(Br)c2)c1O` gave an MIC80 of 0.015 µg/mL (≈ 0.0355 µM) (Cryptococcus neoformans; microbial growth, broth dilution; pH 7.4).
For `Cc1cc(Nc2ccc(C)c(Cl)c2)n2ncnc2n1`, the EC50 was over 12500 nM (Plasmodium falciparum; parasite growth, SYBR Green; 3D7; 72 h).
The remaining binding of `Nc1ncc(-c2nc(N3CCOCC3)nc(N3CCOCC3)n2)c(C(F)F)n1` is reported as 43% (Mast/stem cell growth factor receptor Kit (KIT, Homo sapiens, UniProt P10721, V559D/V654A); binding, competition with immobilised ligand; 10 µM).
With `Nc1ncnc2c([C@@H]3N[C@H](CO)[C@@H](O)[C@H]3O)c[nH]c12` the inhibition was 100% (Dengue virus; viral replication; Vero 76, DENV2; 94.7 µM).
For `CO/C=C(/C(=O)OC)c1ccccc1Oc1cc(Oc2ccccc2C#N)ncn1`, the inhibition was 45.4% (Rhizoctonia solani; microbial growth; 50 µg/mL).
The EC50 of `COCc1ccccc1C(=O)NCCOc1cc(C)cc(C)c1` is reported as 116 nM (Plasmodium falciparum; parasite growth, SYBR Green; 3D7; 72 h).
The MIC80 of `C#Cc1cccc(O)c1C=NNC(=O)c1ccc(COC)cc1` is reported as 8 µg/mL (≈ 25.9 µM) (Candida albicans; microbial growth; pH 7.4).
For `CCCn1c(O)nnc1SCC(=O)Nc1cc(Cl)ccc1Cl`, the EC50 was 1560 nM (Plasmodium falciparum; parasite growth, SYBR Green; 3D7; 72 h).
The MIC80 of `C#Cc1ccc(C(=O)NN=Cc2cccc(C#C)c2O)cc1` is reported as 4 µg/mL (≈ 13.9 µM) (Candida albicans; microbial growth; pH 7.4).
`O[C@@H](CN1CCN(C(c2ccccc2)c2ccccc2)CC1)c1cc(Cl)cc2c1-c1ccc(Cl)cc1C2` gave an IC50 of 57.9 nM (Plasmodium falciparum; parasite growth, SYBR Green; W2; 48 h, drug-resistant strain, blood stage).
`Cc1cc(Nc2ccc3c(c2)CCC3)n2ncnc2n1` has an EC50 of 16100 nM (Plasmodium falciparum; parasite growth, SYBR Green; 3D7; 72 h).
